Experimental data pooled from the literature.
± gives the spread as reported.
GIPR: Gastric inhibitory polypeptide receptor (GIPR, Homo sapiens, UniProt P48546)
UniProt P48546, sequence (whole entry, looked up): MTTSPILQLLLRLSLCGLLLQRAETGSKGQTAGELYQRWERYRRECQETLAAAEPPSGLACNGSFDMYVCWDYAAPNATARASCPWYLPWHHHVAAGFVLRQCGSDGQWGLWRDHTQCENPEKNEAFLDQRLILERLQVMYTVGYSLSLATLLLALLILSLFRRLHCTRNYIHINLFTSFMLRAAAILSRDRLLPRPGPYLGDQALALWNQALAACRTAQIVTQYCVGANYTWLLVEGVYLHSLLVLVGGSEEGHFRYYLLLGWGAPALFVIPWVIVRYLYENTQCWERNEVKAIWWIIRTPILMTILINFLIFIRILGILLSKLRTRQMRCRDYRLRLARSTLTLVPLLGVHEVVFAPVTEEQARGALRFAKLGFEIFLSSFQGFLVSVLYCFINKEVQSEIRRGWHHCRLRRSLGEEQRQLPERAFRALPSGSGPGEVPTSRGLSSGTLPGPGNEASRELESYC
UniProt P41143, sequence (whole entry, looked up): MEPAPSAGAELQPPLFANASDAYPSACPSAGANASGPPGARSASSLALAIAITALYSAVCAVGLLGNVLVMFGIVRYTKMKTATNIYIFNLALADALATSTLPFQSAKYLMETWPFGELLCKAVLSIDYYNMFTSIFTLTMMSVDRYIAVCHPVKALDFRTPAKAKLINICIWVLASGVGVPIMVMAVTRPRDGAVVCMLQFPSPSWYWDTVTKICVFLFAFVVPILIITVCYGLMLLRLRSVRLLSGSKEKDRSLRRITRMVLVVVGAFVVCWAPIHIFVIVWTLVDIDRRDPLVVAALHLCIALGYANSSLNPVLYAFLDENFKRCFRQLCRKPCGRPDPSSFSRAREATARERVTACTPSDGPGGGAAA
UniProt Q8NER1, sequence (whole entry, looked up): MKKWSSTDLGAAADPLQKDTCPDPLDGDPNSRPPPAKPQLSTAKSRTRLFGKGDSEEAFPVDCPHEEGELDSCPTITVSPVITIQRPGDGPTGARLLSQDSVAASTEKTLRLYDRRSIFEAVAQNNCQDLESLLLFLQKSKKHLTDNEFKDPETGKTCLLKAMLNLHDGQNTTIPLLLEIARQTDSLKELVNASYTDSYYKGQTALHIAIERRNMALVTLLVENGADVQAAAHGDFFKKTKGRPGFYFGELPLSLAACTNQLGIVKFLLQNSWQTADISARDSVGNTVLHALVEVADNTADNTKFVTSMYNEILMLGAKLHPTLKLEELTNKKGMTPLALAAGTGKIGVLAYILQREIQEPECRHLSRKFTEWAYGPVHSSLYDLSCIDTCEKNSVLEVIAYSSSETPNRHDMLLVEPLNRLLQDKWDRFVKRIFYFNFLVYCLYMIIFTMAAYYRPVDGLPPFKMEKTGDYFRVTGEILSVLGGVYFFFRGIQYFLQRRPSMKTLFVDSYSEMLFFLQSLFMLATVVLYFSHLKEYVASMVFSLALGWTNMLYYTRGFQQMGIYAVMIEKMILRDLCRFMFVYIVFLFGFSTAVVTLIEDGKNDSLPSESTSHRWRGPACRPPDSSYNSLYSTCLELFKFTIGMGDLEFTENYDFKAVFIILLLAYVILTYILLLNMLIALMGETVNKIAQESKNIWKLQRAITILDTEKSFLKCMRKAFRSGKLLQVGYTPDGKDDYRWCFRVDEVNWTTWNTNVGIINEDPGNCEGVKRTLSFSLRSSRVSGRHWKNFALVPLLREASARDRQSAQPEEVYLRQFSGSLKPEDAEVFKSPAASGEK
UniProt P41145, sequence (whole entry, looked up): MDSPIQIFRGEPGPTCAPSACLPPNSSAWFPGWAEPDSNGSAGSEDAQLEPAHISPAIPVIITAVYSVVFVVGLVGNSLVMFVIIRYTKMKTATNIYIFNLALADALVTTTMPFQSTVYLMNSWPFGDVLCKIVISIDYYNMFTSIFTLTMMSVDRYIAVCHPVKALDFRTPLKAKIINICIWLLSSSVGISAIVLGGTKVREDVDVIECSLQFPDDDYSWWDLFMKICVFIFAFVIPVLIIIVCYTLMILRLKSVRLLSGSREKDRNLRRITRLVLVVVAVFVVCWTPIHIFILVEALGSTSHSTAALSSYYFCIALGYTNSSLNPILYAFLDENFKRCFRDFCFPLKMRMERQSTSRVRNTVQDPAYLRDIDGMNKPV
UniProt P70180, sequence (whole entry, looked up): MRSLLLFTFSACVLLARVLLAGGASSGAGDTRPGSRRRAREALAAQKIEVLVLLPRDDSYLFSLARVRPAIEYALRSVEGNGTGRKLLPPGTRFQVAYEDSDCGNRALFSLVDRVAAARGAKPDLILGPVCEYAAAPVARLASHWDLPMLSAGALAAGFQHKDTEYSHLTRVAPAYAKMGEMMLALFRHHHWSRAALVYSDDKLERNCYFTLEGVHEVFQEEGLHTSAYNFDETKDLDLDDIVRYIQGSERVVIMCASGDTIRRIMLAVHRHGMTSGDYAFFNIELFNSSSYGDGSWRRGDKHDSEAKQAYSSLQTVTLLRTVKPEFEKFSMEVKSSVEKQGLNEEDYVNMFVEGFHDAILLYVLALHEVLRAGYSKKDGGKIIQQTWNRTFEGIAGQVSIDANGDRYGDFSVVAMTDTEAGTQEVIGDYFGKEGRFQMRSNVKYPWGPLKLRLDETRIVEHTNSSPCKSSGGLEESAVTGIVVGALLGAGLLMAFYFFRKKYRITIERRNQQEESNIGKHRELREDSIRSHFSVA
UniProt P42336, sequence (whole entry, looked up): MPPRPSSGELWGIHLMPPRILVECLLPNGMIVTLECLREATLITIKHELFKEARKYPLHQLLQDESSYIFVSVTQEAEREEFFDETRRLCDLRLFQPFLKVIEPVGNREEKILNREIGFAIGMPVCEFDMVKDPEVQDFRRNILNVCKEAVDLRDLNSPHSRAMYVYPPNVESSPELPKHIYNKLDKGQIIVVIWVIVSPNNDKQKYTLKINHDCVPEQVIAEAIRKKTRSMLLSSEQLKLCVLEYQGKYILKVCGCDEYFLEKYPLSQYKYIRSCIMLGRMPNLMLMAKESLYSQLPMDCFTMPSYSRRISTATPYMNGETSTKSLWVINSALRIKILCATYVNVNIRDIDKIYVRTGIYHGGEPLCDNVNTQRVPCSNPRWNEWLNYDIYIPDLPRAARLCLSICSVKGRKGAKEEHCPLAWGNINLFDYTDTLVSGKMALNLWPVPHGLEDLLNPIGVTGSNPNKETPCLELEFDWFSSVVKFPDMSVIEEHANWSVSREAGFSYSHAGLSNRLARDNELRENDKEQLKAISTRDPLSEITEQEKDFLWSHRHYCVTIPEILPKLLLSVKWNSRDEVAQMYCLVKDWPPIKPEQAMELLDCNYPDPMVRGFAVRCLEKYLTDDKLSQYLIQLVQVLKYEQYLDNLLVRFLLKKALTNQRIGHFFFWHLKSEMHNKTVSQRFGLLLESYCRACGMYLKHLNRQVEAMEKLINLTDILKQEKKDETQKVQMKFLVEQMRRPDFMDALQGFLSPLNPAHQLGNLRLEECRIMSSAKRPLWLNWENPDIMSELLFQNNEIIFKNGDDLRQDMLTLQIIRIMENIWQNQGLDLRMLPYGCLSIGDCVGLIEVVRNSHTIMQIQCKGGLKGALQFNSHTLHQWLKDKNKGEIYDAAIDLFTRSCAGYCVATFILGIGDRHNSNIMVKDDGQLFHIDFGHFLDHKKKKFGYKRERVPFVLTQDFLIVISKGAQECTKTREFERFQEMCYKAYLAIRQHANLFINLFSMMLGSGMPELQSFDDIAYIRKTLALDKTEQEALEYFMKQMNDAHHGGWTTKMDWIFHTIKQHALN

SMILES | target | assay | system | conditions | scale | measurement | value
CC[C@H](C)[C@H](N)C(=O)N[C@@H](CC(N)=O)C(=O)N[C@@H](CC(N)=O)C(=O)N[C@H](C(=O)N1C[C@@H](n2cc([C]34[CH]5[CH]6[CH]7[CH]3[Fe]6754389%10[CH]4[CH]3[CH]8[CH]9[CH]4%10)nn2)C[C@H]1C(=O)N[C@@H](Cc1cn(C)c2ccccc12)C(N)=O)[C@@H](C)CC (some centres unmarked) | Envelope glycoprotein gp160, gp120 (env, Human immunodeficiency virus type 1 group M subtype B, UniProt P35961, T253A) | ITC |  | concentration not given, gp120 T257A mutant |  | binding stoichiometry | 1.15
CC[C@H](C)[C@@H]1NC(=O)[C@H](CCCNC(=N)N)NC(=O)[C@H](CC(=O)O)NC(=O)[C@H]([C@@H](C)CC)NC(=O)[C@H](CCCNC(=N)N)NC(=O)CNC(=O)CNC(=O)[C@H](Cc2ccccc2)NC(=O)[C@@H](NC(=O)[C@H](CO)NC(=O)[C@H](CO)NC(=O)[C@H](CCCNC(=N)N)NC(=O)CN2CCN(CC(=O)O)CCN(CC(=O)O)CCN(CC(=O)O)CC2)CSSC[C@@H](C(N)=O)NC(=O)[C@H](C)NC(=O)CNC1=O [copper-64 labelled] | Atrial natriuretic peptide receptor 3 (Mus musculus, UniProt P70180) | PET/CT | C57BL/6 mice hind limb ischemia, nonischemic limb | iv, day 7 after surgery |  | tracer uptake | 0.77 ± 0.03 %ID/g
CC[C@H](C)[C@H](NC(=O)[C@H](CCCN)NC(=O)[C@H](CC(=O)O)NC(=O)[C@H](CC(C)C)NC(=O)C(C)(CC(C)C)NC(=O)[C@@H](NC(=O)[C@H](CO)NC(=O)[C@H](Cc1ccc(O)cc1)NC(=O)[C@H](CC(=O)O)NC(=O)[C@H](CO)NC(=O)[C@@H](NC(=O)[C@H](Cc1ccccc1)NC(=O)[C@@H](NC(=O)CNC(=O)[C@H](CCC(=O)O)NC(=O)C(C)(C)NC(=O)[C@@H](N)Cc1ccc(O)cc1)[C@@H](C)O)[C@@H](C)CC)[C@@H](C)CC)C(=O)N[C@@H](Cc1c[nH]cn1)C(=O)N[C@@H](CCC(N)=O)C(=O)NC(C)(C)C(=O)N[C@@H](CC(=O)O)C(=O)N[C@@H](Cc1ccccc1)C(=O)N[C@H](C(=O)N[C@@H](CCC(=O)O)C(=O)N[C@@H](Cc1ccc(O)cc1)C(=O)N[C@@H](CCCCNC(=O)COCCOCCNC(=O)COCCOCCNC(=O)CC[C@H](NC(=O)CCCCCCCCCCCCCCCCCCC(=O)O)C(=O)O)C(=O)N[C@@H](CC(C)C)C(=O)N[C@@H](CCC(=O)O)C(=O)NCC(=O)NCC(=O)N1CCC[C@H]1C(=O)N[C@@H](CO)C(=O)N[C@@H](CO)C(=O)NCC(=O)N[C@@H](C)C(=O)N1CCC[C@H]1C(=O)N1CCC[C@H]1C(=O)N1CCC[C@H]1C(=O)N[C@@H](CO)C(N)=O)C(C)C (some centres unmarked) | GIPR | cAMP, agonist | HEK293 |  |  | Emax | 102%
CC[C@H](C)[C@H](NC(=O)[C@@H]1CCCN1C(=O)[C@H](CCC(=O)O)NC(=O)[C@H](CCC(N)=O)NC(=O)[C@H](CCCCN)NC(=O)[C@H](CCC(N)=O)NC(=O)[C@@H]1CCCN1C(=O)[C@@H]1CCCN1C(=O)[C@@H](NC(=O)[C@@H](NC(=O)[C@@H](NC(=O)[C@H](CCC(=O)O)NC(=O)[C@@H](NC(=O)CNC(=O)[C@H](CO)NC(=O)[C@H](CCCNC(=N)N)NC(=O)[C@H](Cc1ccccc1)NC(=O)[C@H](CO)NC(=O)[C@H](CCC(=O)O)NC(=O)[C@H](CCC(=O)O)NC(=O)[C@@H]1CCCN1C(=O)[C@@H]1CCCN1C(=O)[C@H](C)NC(=O)[C@@H](NC(=O)[C@@H]1CCCN1C(=O)[C@H](CCC(=O)O)NC(=O)[C@@H]1CCCN1C(=O)[C@H](CCCNC(=N)N)NC(=O)[C@@H](N)CO)[C@@H](C)O)C(C)C)[C@@H](C)O)[C@@H](C)O)[C@@H](C)O)C(=O)N[C@@H](CC(=O)O)C(=O)N[C@@H](CCCCN)C(=O)N[C@@H](CCC(=O)O)C(=O)N[C@@H](CC(C)C)C(=O)N[C@@H](Cc1ccc(O)cc1)C(=O)N1CCC[C@H]1C(=O)N[C@@H](CC(C)C)C(=O)N[C@H](C(=O)N[C@@H](CO)C(=O)N[C@@H](CC(C)C)C(=O)N[C@@H](CCCNC(=N)N)C(=O)N[C@@H](CO)C(=O)N[C@@H](CC(C)C)C(=O)N[C@@H](Cc1ccccc1)C(=O)NCC(=O)N[C@@H](CC(N)=O)C(=O)N[C@@H](CC(=O)O)C(=O)N1CCC[C@H]1C(=O)N[C@@H](CO)C(=O)N[C@@H](CO)C(=O)N[C@@H](CCC(N)=O)C(=O)O)[C@@H](C)O | IDE (Homo sapiens, UniProt P14735, E111Q) | NMR relaxation dispersion |  | 500 µM, 2 °C |  | bound state population | ~3%
CC(C)C[C@@H]1NC(=O)[C@@H](NC(=O)[C@H](CC(=O)O)NC(=O)[C@H](C)N)CSSC[C@@H]2NC(=O)[C@@H]3CSSC[C@@H](C(=O)N[C@@H](CCCNC(=N)N)C(=O)O)NC(=O)[C@H](CCCNC(=N)N)NC(=O)[C@H](CCC(N)=O)NC(=O)[C@H](CCC(=O)O)NC(=O)[C@@H]4CCCN4C(=O)[C@H](CC(N)=O)NC(=O)[C@H]([C@@H](C)O)NC(=O)CNC(=O)[C@H](CCCNC(=N)N)NC(=O)[C@H](CCCNC(=N)N)NC(=O)[C@H](CO)NC(=O)[C@H](CSSC[C@H](NC(=O)[C@H](CC(C)C)NC(=O)[C@H](CCCCN)NC(=O)[C@H](CC(C)C)NC(=O)[C@H](Cc4c[nH]cn4)NC(=O)[C@H](C)NC1=O)C(=O)N[C@@H](CCCCN)C(=O)N[C@@H](CCCCN)C(=O)N[C@@H](CC(N)=O)C(=O)N[C@@H](CCCCN)C(=O)N[C@@H](CC(=O)O)C(=O)N3)NC(=O)[C@H](CCCCN)NC(=O)[C@H](CCCCN)NC(=O)[C@H](CO)NC2=O | RYR1 (Oryctolagus cuniculus, UniProt P11716) | activator |  | 100 nM, pCa 6 to 4 | relative to: control at pCa 5 | maximal [3H]ryanodine binding | ~300%
CSCC[C@@H]1NC(=O)[C@H](Cc2ccccc2)NC(=O)CNC(=O)[C@H](NC(=O)[C@@H](N)Cc2ccc(O)cc2)CSSC[C@@H](C(=O)N[C@@H](Cc2c[nH]c3ccccc23)C(=O)NCc2cc(C(F)(F)F)cc(C(F)(F)F)c2)NC(=O)[C@@H]2CCCN2C1=O | OPRD1 (Homo sapiens, UniProt P41143) | GTPγS binding, agonist, radiometric |  | cell membranes |  | Emax | 11%
CCCCCCCCCCCCCCCC(=O)N[C@@H](CCC(=O)NCCCC[C@H](NC(=O)[C@H](CO)NC(=O)[C@@H]1CCCN1C(=O)[C@@H]1CCCN1C(=O)[C@@H]1CCCN1C(=O)[C@H](C)NC(=O)CNC(=O)[C@H](CO)NC(=O)[C@H](CO)NC(=O)[C@@H]1CCCN1C(=O)CNC(=O)CNC(=O)[C@H](C)NC(=O)[C@H](CC(C)C)NC(=O)[C@H](CC(C)C)NC(=O)[C@H](Cc1c[nH]c2ccccc12)NC(=O)[C@H](CC(N)=O)NC(=O)[C@@H](NC(=O)[C@H](Cc1ccccc1)NC(=O)[C@H](CCC(=O)O)NC(=O)C(C)(C)NC(=O)[C@H](C)NC(=O)[C@H](C)NC(=O)[C@H](CCC(N)=O)NC(=O)[C@H](CCCCN)NC(=O)[C@H](CC(=O)O)NC(=O)[C@H](CC(C)C)NC(=O)[C@H](Cc1ccc(O)cc1)NC(=O)[C@@H](NC(=O)[C@H](CO)NC(=O)[C@H](Cc1ccc(O)cc1)NC(=O)[C@H](CC(=O)O)NC(=O)[C@H](CO)NC(=O)[C@@H](NC(=O)[C@H](Cc1ccccc1)NC(=O)[C@@H](NC(=O)CNC(=O)[C@H](CCC(=O)O)NC(=O)CSCC(=O)NCCN1C(=O)CSC1=O)[C@@H](C)O)[C@@H](C)O)[C@@H](C)CC)C(C)C)C(N)=O)C(=O)O | GIPR | cAMP, agonist |  |  |  | Emax | 35%
NS(=O)(=O)c1ccc(NC(=O)c2ccccc2SSc2ccccc2C(=O)Nc2ccc(S(N)(=O)=O)cc2)cc1 | Gag-Pol polyprotein, integrase (gag-pol, Human immunodeficiency virus type 1 group M subtype B, UniProt P04585, C1427S) | DNA binding, fluorescence anisotropy | HIV-1 | compound:integrase ratio 3:1, added: 10 mM Mn2+, U5 DNA |  | Hill coefficient | 1.2
C[Si](C)(C)C[C@@H](CN)CC(=O)O | TRPV1 (Homo sapiens, UniProt Q8NER1) | ligand displacement, radioligand |  | 75 µM |  | inhibition | 4%
C[C@H](Nc1ncnc(N)c1C#N)c1c(-c2ccccc2)[nH]c2c(Cl)cccc2c1=O | PIK3CA (Homo sapiens, UniProt P42336) | enzyme activity |  |  | relative to: IC50 PIK3CA over PI3Kδ | selectivity ratio | 306
Cc1cc(O)cc(C)c1C[C@H](N)C(=O)NCC(=O)NCC(=O)N[C@@H](Cc1ccccc1)C(=O)N[C@H](C(=O)NCC(=O)N[C@@H](C)C(=O)N[C@@H](CCCNC(=N)N)C(=O)N[C@@H](CCCCN)C(=O)N[C@@H](CO)C(=O)N[C@@H](C)C(=O)N[C@@H](CCCNC(=N)N)C(=O)N[C@@H](CCCCN)C(N)=O)[C@@H](C)O | OPRK1 (Homo sapiens, UniProt P41145) | calcium mobilization, agonist | CHO cells expressing Gαqi5 chimera |  | relative to: basal | Emax | 191 ± 26%

A few entries again:
SMILES | target | assay | system | conditions | scale | measurement | value
CC[C@H](C)[C@H](NC(=O)[C@@H]1CCCN1C(=O)[C@H](CCC(=O)O)NC(=O)[C@H](CCC(N)=O)NC(=O)[C@H](CCCCN)NC(=O)[C@H](CCC(N)=O)NC(=O)[C@@H]1CCCN1C(=O)[C@@H]1CCCN1C(=O)[C@@H](NC(=O)[C@@H](NC(=O)[C@@H](NC(=O)[C@H](CCC(=O)O)NC(=O)[C@@H](NC(=O)CNC(=O)[C@H](CO)NC(=O)[C@H](CCCNC(=N)N)NC(=O)[C@H](Cc1ccccc1)NC(=O)[C@H](CO)NC(=O)[C@H](CCC(=O)O)NC(=O)[C@H](CCC(=O)O)NC(=O)[C@@H]1CCCN1C(=O)[C@@H]1CCCN1C(=O)[C@H](C)NC(=O)[C@@H](NC(=O)[C@@H]1CCCN1C(=O)[C@H](CCC(=O)O)NC(=O)[C@@H]1CCCN1C(=O)[C@H](CCCNC(=N)N)NC(=O)[C@@H](N)CO)[C@@H](C)O)C(C)C)[C@@H](C)O)[C@@H](C)O)[C@@H](C)O)C(=O)N[C@@H](CC(=O)O)C(=O)N[C@@H](CCCCN)C(=O)N[C@@H](CCC(=O)O)C(=O)N[C@@H](CC(C)C)C(=O)N[C@@H](Cc1ccc(O)cc1)C(=O)N1CCC[C@H]1C(=O)N[C@@H](CC(C)C)C(=O)N[C@H](C(=O)N[C@@H](CO)C(=O)N[C@@H](CC(C)C)C(=O)N[C@@H](CCCNC(=N)N)C(=O)N[C@@H](CO)C(=O)N[C@@H](CC(C)C)C(=O)N[C@@H](Cc1ccccc1)C(=O)NCC(=O)N[C@@H](CC(N)=O)C(=O)N[C@@H](CC(=O)O)C(=O)N1CCC[C@H]1C(=O)N[C@@H](CO)C(=O)N[C@@H](CO)C(=O)N[C@@H](CCC(N)=O)C(=O)O)[C@@H](C)O | IDE (Homo sapiens, UniProt P14735, E111Q) | NMR relaxation dispersion |  | 500 µM, 2 °C |  | bound state population | ~3%
